Measured values of several laboratories.
Each line is one published result; not all experiments were run side by side. Values joined by “and” are separate records of one study, mostly repeats; a detail may differ. ± gives the spread as reported.
Chain of UniProt P68400 (whole entry, looked up): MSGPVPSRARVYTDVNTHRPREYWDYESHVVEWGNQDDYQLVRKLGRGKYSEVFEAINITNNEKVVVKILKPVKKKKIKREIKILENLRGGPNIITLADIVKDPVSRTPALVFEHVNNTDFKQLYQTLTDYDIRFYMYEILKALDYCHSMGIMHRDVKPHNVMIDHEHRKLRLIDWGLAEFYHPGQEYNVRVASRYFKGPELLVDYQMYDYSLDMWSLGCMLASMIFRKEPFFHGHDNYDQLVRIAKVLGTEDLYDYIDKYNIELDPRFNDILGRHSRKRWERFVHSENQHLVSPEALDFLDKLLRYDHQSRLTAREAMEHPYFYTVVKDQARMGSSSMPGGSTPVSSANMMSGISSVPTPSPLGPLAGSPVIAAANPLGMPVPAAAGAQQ

SMILES | tested on | assay | test system | setting | how to read | quantity | result
CN(C)c1ccc(-n2cc(COC(=O)[C@]3(C)C=C(C(=O)OC(C)(C)C)C(=O)CC3)nn2)cc1 | AP-1 reporter HEK293 | AP-1 reporter gene, luciferase reporter | – | 3 µM, 6 h, added: PMA 6 ng/mL | baseline: PMA alone | luminescence relative to PMA | 0.421
O=C(COC(=O)c1ccccc1Nc1cccc(C(F)(F)F)c1)Nc1cccc(C(F)(F)F)c1 | RAW264.7 | Western blot | – | concentration not given, 72 h, unit not given, added: LPS | baseline: control | mTOR protein level | 0.291
[177Lu+3].[Cl-].[Cl-].[Cl-] | 4T1 | flow cytometry | – | 0.4 Bq/cell, 24 h | – | dead cells | 20.8%
O=C1CC[C@H](N2Cc3cc(-c4ccn5ncc(Cl)c5n4)ccc3C2=O)C(=O)N1 | MOLM-13 | mRNA level, RNA-seq, item: TRIB3 | – | 200 nM, 24 h | baseline: DMSO | log2 fold change | -3.31
CC(=O)OC[C@H]1O[C@@H](n2cc(CSc3nc4ccccc4n3Cc3cn([C@@H]4O[C@H](COC(C)=O)[C@@H](OC(C)=O)C(OC(C)=O)[C@H]4OC(C)=O)nn3)nn2)[C@H](OC(C)=O)C(OC(C)=O)[C@@H]1OC(C)=O (stereo in doubt) | Caco-2 | MTT | – | 62.5 ppm | – | cytotoxicity | 87.8%
CC(C)(C)c1cc(-c2ccc3cccnc3n2)nc(-c2ccc3cccnc3n2)c1.[Cl-].[Cl-].[Ru+2].c1ccc2cc3nc4c5cccnc5c5ncccc5c4nc3cc2c1 | A-375 | cytotoxicity, resazurin | – | dark | – | EC50 | 13.4 µM
Cc1cc(Cl)cc(-c2ccnc3cc(CN4C(=O)C5C(C4=O)C5(C)C)sc23)c1C[C@@H]1CNCCO1 (stereo partly drawn) | CHP-212 parental | PI flow cytometry | – | 0.1 µM, 24 h | – | S phase cells | 18.7%
COc1cc(/C=C/c2cc(C)n[nH]2)ccc1O | A549 | PI staining flow cytometry | – | 50 µM, 48 h | – | cells in G2/M phase | 53.7%
Oc1ccnc(-c2cc(O)ccn2)c1.[Cl-].[Cl-].[Ru+2].c1ccc(-c2ccnc3c2ccc2c(-c4ccccc4)ccnc23)cc1.c1ccc(-c2ccnc3c2ccc2c(-c4ccccc4)ccnc23)cc1 | MCF-10A | CCK-8 viability | – | dark | – | EC50 | 38 µM
N#Cc1cccc(/C=C/C(=O)c2ccc(O)cc2)c1 | U-87 MG | item: ANKRD1 | – | concentration not given | baseline: untreated | fold change | 1160
CCN(C(=O)c1cc(F)ccc1Oc1nncnc1N1CCC2(C1)CN([C@H](CCCN(C)CCOC)C(C)C)C2)C(C)C | COLO 205 | cell growth or viability | – | 7 days | – | GI50 | > 10 µM
Cn1ncc(-c2ccc3c(=O)[nH]nc(CN)c3c2)c1-c1c(F)c(Cl)cc(OC2CC2)c1C#N | SNU-449 | cell viability, inhibitor, CellTiter-Glo | – | 120 h, baseline-subtracted | – | IC50 | 6.68 µM
Cc1ncsc1-c1ccc(C(C)NC(=O)C2CC(O)CN2C(=O)C(NC(=O)CCCCCCCCCCN2CCCC(Nc3ncc(Cl)c(Nc4ccccc4S(=O)(=O)C(C)C)n3)C2)C(C)(C)C)cc1 (stereo not drawn) | 22Rv1 | RNA-seq, item: PEX12 mRNA | – | concentration not given | baseline: DMSO | log2 fold change | -1.5
CC(C)c1ccc(N(C)c2ccc3c(c2)OCC[C@H]3CNc2cnccc2C(=O)O)cc1 | HPAC | cell growth or viability, ATP luminescence | – | 7 days | – | IC50 | 0.00393 µM
Cn1ncc2cc(-c3cncc(Cl)c3N3CCC4(CCNC4=O)CC3)ccc21 | LS174T | gene expression, microarray, item: BHLHE41 mRNA | – | concentration not given, 4 h | baseline: untreated cells | log2 fold change | 1.39
Cc1nn(-c2cccc(N)c2)c(=O)c2cnc(Nc3ccc(N4CCNCC4)cc3)nc12 | CSNK2A1 (Homo sapiens, UniProt P68400) | enzyme activity, inhibitor | – | – | – | IC50 | > 10 µM
C=CC(=O)Nc1cccc(Cn2ncc3cnc(Nc4cnn(CCOC)c4)nc32)c1 | SRMS human | binding, KINOMEscan | – | 100 nM | lower = stronger binding | percent of control | 100%
Cc1cc(C)nc(SCC(=O)Nc2ncc(Cc3cccc(OCc4cn(Cc5ccc(C#N)cc5)nn4)c3)s2)n1 | PC-3M-luc | colony formation, colony forming | – | 1 µM | – | inhibition | 10.8 ± 4.3%
CC(C)(C)n1cc(CN(Cc2cn(CC(=O)O)nn2)Cc2cn(C(C)(C)C)nn2)nn1 | OVCAR-5, HPG-incorporated | live-cell CuAAC, LC-ESI-MS/MS | cytosolic proteins | concentration not given, 10 min, adherent cells, no pre-treatment | – | amount of labelled product | 0.36 pg/µg protein and 0.34 pg/µg protein and 0.31 pg/µg protein
CN1CCCNC(=O)c2cccc(c2)C(=O)NCCCN(C)CCCNc2cccc3c2C(=O)c2cccc(c2C3=O)NCCC1 | SAS | RNA-Seq, item: WDR43 mRNA | – | 1 µM, 6 h | baseline: untreated cells | log2 fold change | -1.09
C[n+]1cccc2cc(/C=N/NC(=O)c3cccc(C(=O)N/N=C/c4ccc5c(ccc[n+]5C)c4)c3)ccc21 | MYC parallel G4 DNA | FRET melting | – | 1 µM, DNA 0.2 µM, added: duplex DNA competitor 10 µM | – | ΔTm | 4.4 ± 0.3 °C

SMILES | tested on | assay | test system | setting | how to read | quantity | result
COC(=O)c1cc(NC2=NC(=O)C(=Cc3ccc(C)cc3)S2)ccc1OC(C)=O | MCF7 | GC-MS, item: Decanoic acid | – | 1 µM | baseline: DMSO | metabolite level | -0.61 fold change
CCOc1cncc(-c2ccc(NC(=O)C3(c4ccnc(NS(=O)(=O)C5CC5)n4)CCOCC3)nc2)n1 | SR-786 | cell growth or viability, ATP luminescence | – | 72 h | – | IC50 | 0.107 µM
C=CC(=O)N1CCC[C@@H](n2nc(-c3ccc(Oc4ccccc4)cc3)c3c(N)ncnc32)C1 | OCI-Ly3 | cell growth or viability, WST-1 | – | 72 h | – | GI50 | > 10 µM
C=CC(=O)N1CCCC(n2c(=O)c3ncccc3n(Cc3ccc(Oc4ccccc4)cc3)c2=O)C1 (stereo not drawn) | OCI-Ly1 | cell growth or viability, MTT | – | 72 h | – | IC50 | 0.25 µM
NC(=O)c1ccc(-c2ccccc2Cl)c2c3c([nH]c12)CC[C@@H](N)C3 | B16F10 | cell proliferation | – | 96 h | – | IC50 | 0.0209 µM
COc1ccccc1-c1ccncc1C(=O)Nc1nnc(OCc2ccc(Cl)cc2)s1 | DLD-1 BRCA2 wild-type | immunofluorescence | – | 10 µM, 96 h, >5 foci per nucleus | – | γH2AX foci-positive nuclei | 24.9% and 24% and 25.2%
CCN(CC)CC(=O)Nc1cccc(-n2cc(-c3ccc4ccc(-c5cn(-c6cccc(NC(=O)CN(CC)CC)c6)nn5)cc4c3)nn2)c1 | RCC4 | PCR angiogenesis array, item: GAPDH | – | 5 x IC50, 6 h, normoxia | baseline: untreated | fold regulation | -1.28 fold
CNS(=O)(=O)Nc1nccc(Cc2c(C)c3ccc(Oc4ncccc4F)cc3oc2=O)c1F | HLE | cell viability | – | 7 days | – | IC50 | > 1 µM
C[n+]1ccc(/C=N/NC(=O)c2cc(C(=O)N/N=C/c3cc[n+](C)cc3)ncn2)cc1 | MYC parallel G4 DNA | FRET melting | – | 1 µM, DNA 0.2 µM, added: duplex DNA competitor 10 µM | – | ΔTm | 3 ± 0.2 °C
Nc1ncc(-c2cc(-c3cnn(CC(F)(F)F)c3)ncc2F)nc1C(=O)NC1CNCC(F)C1 (stereo not drawn) | PRKCH | KINOMEscan | – | 1 µM | baseline: DMSO control | remaining binding | 100%
CSC(=S)N/N=C(\C)c1ccc(Nc2nnc(-c3ccc(Cl)cc3)c3ccccc23)cc1 | MCF7 | cell growth or viability, MTT | – | 10 µM | – | cell death | 92.8%
C=CC(=O)N1[C@H](c2ccc3c(c2)OCO3)c2[nH]c3ccccc3c2C[C@@H]1C(=O)NC | rat DRG neurons | – | – | 0.1235 µM, 48 h, added: vincristine 40 nM | – | mean neuron degeneration | 59.7%
COC1CN([C@H]2CC[C@H]([C@@]3(C)Oc4c(Cl)cc(C(=O)NCc5c(SC)cc(C)[nH]c5=O)c(C)c4O3)CC2)C1 | – | RNA-seq, item: KIF3C mouse homolog | mouse, HT-1376 xenograft, whole blood | dose not given | baseline: vehicle | log2 fold change | 0.345
Cc1cccc(NC(=O)CC(=O)Nc2ccc3[nH]nc(/C=C/c4ccccn4)c3c2)c1 | Ba/F3 TEL-VEGFR1 | cell growth, CCK-8 | – | – | – | GI50 | 1 µM
CCCCCCCCCCCC(=O)N[C@@H](CO)C[C@@H](O)c1cccc(CCCCCC)c1 | HeLa | CERT activity, HPLC-MS/MS lipidomics, item: lactosylceramide 24:1 | – | 1 µM, 24 h, not cell-number normalised | – | lactosylceramide level | 5500 pmol/sample and 5250 pmol/sample and 7000 pmol/sample
CCc1c(-c2ccc3[nH]ncc3c2)cnc(N)c1-c1ccc(O)cc1 | CHP-212 | cell growth or viability, SRB | – | 0.7812 µM | – | viability | 104%
[Cl-].[Cl-].[Ru+2].c1cc(-c2ccc3cccnc3n2)nc(-c2ccc3cccnc3n2)c1.c1ccc2cc3nc4c5cccnc5c5ncccc5c4nc3cc2c1 | A-375 | resazurin | – | added: light 733 nm, 100 J/cm2 | baseline: dark EC50 over light EC50 | phototoxicity index | 3
Cc1cc(C)nc(SCC(=O)Nc2ncc(Cc3cccc4ccccc34)s2)n1 | PC-3M-luc | cell viability, MTS | – | 10 µM | – | inhibition | 12.1 ± 1.1%
COCCCCCNc1nc(NCCCCCCN(C)C)c2cc(NC(=O)/C=C/CN(C)C)ccc2n1 | MCF7 | CellTiter-Glo | – | 50 µM, 48 h, unit not given | baseline: DMSO-treated cells | viability | 0.948 and 0.901 and 0.955
CC(C)(C)c1cc(-c2ccc3cc4ccccc4nc3n2)nc(-c2ccc3cc4ccccc4nc3n2)c1.Cc1ccncc1.[Cl-].[Cl-].[Ru+2].c1ccc2cc3nc4c5cccnc5c5ncccc5c4nc3cc2c1 | A-375 | resazurin | – | added: light 523 nm, 20 mW, 100 J/cm2 | – | EC50 | 12.1 µM
CO[C@@H]1[C@@H](OC(N)=O)[C@@H](O)[C@H](Oc2ccc3c(O)c(NC(=O)c4ccc(O)c(CC=C(C)C)c4)c(=O)oc3c2C)OC1(C)C | DLD-1 parental | – | – | 250 µM, replicate 2 | – | colony count | 0.1

A few entries again:
SMILES | tested on | assay | test system | setting | how to read | quantity | result
Cn1ncc2cc(-c3cncc(Cl)c3N3CCC4(CCNC4=O)CC3)ccc21 | LS174T | gene expression, microarray, item: BHLHE41 mRNA | – | concentration not given, 4 h | baseline: untreated cells | log2 fold change | 1.39
Cc1nn(-c2cccc(N)c2)c(=O)c2cnc(Nc3ccc(N4CCNCC4)cc3)nc12 | CSNK2A1 (Homo sapiens, UniProt P68400) | enzyme activity, inhibitor | – | – | – | IC50 | > 10 µM
C=CC(=O)Nc1cccc(Cn2ncc3cnc(Nc4cnn(CCOC)c4)nc32)c1 | SRMS human | binding, KINOMEscan | – | 100 nM | lower = stronger binding | percent of control | 100%
